Results gathered from unrelated publications.
Protocols differ between the studies behind these lines. “And” joins repeats or separate records; there may be more than shown.

| SMILES | assay | system | setting | scale | measurement | result |
| --- | --- | --- | --- | --- | --- | --- |
| COc1cc(C(O)C(=O)O)ccc1O (racemic) | binding, MIDAS equilibrium dialysis LC-MS | A2AR-BRIL thermostabilized | concentration not given | reference: no-protein control | log2 fold change | -1.51 |
| N#Cc1ccc2c(c1)[C@H]1CCCN(C(=O)c3ccc4[nH]cnc4c3)[C@H]1C2 | – | T2DM patients with overweight or obesity, urine | oral, 80 mg, day 1, 0-24 h, multiple dosing, adjusted geometric mean | reference: baseline day -1, -24-0 h | total urinary corticosteroid excretion | 161% |
| OC(CCN1CCCCC1)(c1ccccc1)C1CC2C=CC1C2 (stereo not drawn) | resting-state EEG | healthy elderly humans | oral, 4 mg, eyes closed, LS mean | reference: baseline | change in EEG Alpha1-power Pz-O1 | -40% |
| Oc1ccc(Br)cc1C=NCCN1CCOCC1 | FRAP | – | 80 µM | – | ferric reducing power | 13.4% |
| Nc1ccn([C@H]2C[C@H](O)[C@@H](COP(=O)(O)OP(=O)(O)O)O2)c(=O)n1 | binding, MIDAS equilibrium dialysis LC-MS | A2AR-BRIL thermostabilized | concentration not given | reference: no-protein control | log2 fold change | -0.626 |
| C[C@H](Oc1ccc(Br)cc1-c1ccon1)C(=O)O | first response peak | human, tibialis anterior muscle | 800 mg, 30-15 Hz, SAD | – | difference from placebo | -0.641% |
| O=C(O)CNC(=O)Cc1ccccc1 | – | ventricular cardiomyocytes, C57BL/6 mouse | dose not given, 0.472 s | – | sarcomere length | 1.68 µm |
| Nc1ncnc2c1ncn2[C@@H]1O[C@H](COP(=O)(O)OP(=O)(O)O)[C@@H](O)[C@H]1O | binding, MIDAS equilibrium dialysis LC-MS | A2AR-BRIL thermostabilized | concentration not given | reference: no-protein control | log2 fold change | -0.474 |
| C[C@H]1C[C@H]2CSC(N)=N[C@@]2(c2nc(NC(=O)c3ccc(OC(F)F)cn3)cs2)CO1 | measured: total Aβ | healthy adults, plasma | 540 mg single dose, 8 h post-dose | reference: placebo | percent change from baseline | -66.8% |
| C[C@H]1O[C@@H](O[C@H]2CC[C@@]3(C)[C@@H](CC[C@]4(C)[C@@H]3C=C[C@]35OC[C@@]6(CCC(C)(C)C[C@H]63)[C@@H](O)C[C@]54C)[C@]2(C)CO)[C@H](O)[C@@H](O[C@@H]2O[C@H](CO)[C@@H](O)[C@H](O)[C@H]2O)[C@H]1O | H&E staining | chronic-plus-binge ethanol mice | dose not given, medium dose | – | adipose area | 11.5% and 13.4% and 15.6% and 13.6% |
| C[C@@H]1O[C@H](OP(=O)(O)O)[C@@H](O)[C@H](O)[C@@H]1O | binding, MIDAS equilibrium dialysis LC-MS | A2AR-BRIL thermostabilized | concentration not given | reference: no-protein control | log2 fold change | 0.00452 |
| COc1ncc(-c2nc3c(n2C(C)C)[C@H](c2ccc(Cl)cc2)N(c2cc(Cl)cn(C)c2=O)C3=O)c(OC)n1 | International Working Group criteria | human acute myeloid leukemia patients | oral, 350 to 400 mg, response TF, high-dose, other doses | – | best overall response | 58.3% |
| Cc1coc([C@H]2C[C@H]3[C@@H](CF)SC(N)=N[C@@]3(c3ccc(F)cc3F)CO2)n1 | measured: Aβx-40 | wild-type mouse, brain | subcutaneous, 80 mg/kg, 5 h | – | brain Aβ40 level | 1 ng/g |
| CCO[C@H]1CCN(Cc2c(OC)cc(C)c3[nH]ccc23)[C@H](c2ccc(C(=O)O)cc2)C1 | – | PNH patients, blood | oral, 25 mg then 100 mg, week 2, mean absolute change | reference: baseline | PNH RBC clone size | 20.9% |
| N#Cc1ccn2c(-c3ccncc3)c(-c3ccc(F)cc3)nc2c1 | kinase binding, competitor, MIB/MS competition, measured: CAK1 | Candida albicans cell lysate | 100 nM | reference: DMSO | log2 fold change | 0.0171 |
| O=C(O)CCCCCCCCCCC(=O)O | binding, MIDAS equilibrium dialysis LC-MS | A2AR-BRIL thermostabilized | concentration not given | reference: no-protein control | log2 fold change | -0.36 |
| CC(C)NCC(O)c1ccc(O)c(O)c1 (stereo not drawn) | – | ventricular cardiomyocytes, C57BL/6 mouse | dose not given, 0.204 s | – | sarcomere length | 1.49 µm |
| O=c1[nH]cnc2c1ncn2[C@@H]1O[C@H](COP(=O)(O)OP(=O)(O)OP(=O)(O)O)[C@@H](O)[C@H]1O | binding, MIDAS equilibrium dialysis LC-MS | A2AR-BRIL thermostabilized | concentration not given | reference: no-protein control | log2 fold change | -0.732 |
| O=P(O)(O)C(Cl)(Cl)P(=O)(O)O | endothelial activation, immunostaining | mouse, SAH model, cortical capillaries | dose not given | – | VCAM-1 level | 3.64 MFI and 1.56 MFI and 2.98 MFI and 2.24 MFI |
| O=C(O)CNC(=O)Cc1ccc(O)cc1 | binding, MIDAS equilibrium dialysis LC-MS | A2AR-BRIL thermostabilized | concentration not given | reference: no-protein control | log2 fold change | 0.554 |
| NC(=O)c1cnc2[nH]ccc2c1N[C@@H]1[C@@H]2CC3C[C@H]1C[C@@](O)(C3)C2 | CD8+ central memory T cells, flow cytometry | Japanese humans, peripheral blood | 200 mg single dose | reference: baseline | percent change | 0.13% |
| OC[C@@H](O)[C@H](O)[C@H](O)[C@@H](O)CO | binding, MIDAS equilibrium dialysis LC-MS | A2AR-BRIL thermostabilized | concentration not given | reference: no-protein control | log2 fold change | -0.142 |
| Cc1cc([C@H]2C[C@H]3[C@@H](CF)SC(N)=N[C@@]3(c3ccc(F)cc3F)CO2)on1 | measured: Aβx-40 | wild-type mouse, brain | subcutaneous, 100 mg/kg, 9 h | – | brain Aβ40 level | 2.24 ng/g |
| CC(C)[C@H](NC(=O)[C@H](Cc1ccc(O)cc1)NC(=O)[C@H](Cc1ccc(O)cc1)NC(=O)[C@@H]1CCCN1C(=O)[C@H](CCC(=O)O)NC(=O)[C@H](CCC(=O)O)NC(=O)[C@H](Cc1c[nH]c2ccccc12)NC(=O)[C@@H]1CCCN1C(=O)[C@@H](NC(=O)[C@H](CCC(N)=O)NC(=O)c1ccc2c(c1)C(=O)OC21c2ccc(O)cc2Oc2cc(O)ccc21)C(C)C)C(=O)N[C@H](C(=O)N[C@@H](CCCCN)C(=O)N[C@@H](CCCCN)C(=O)N[C@@H](CO)C(=O)N[C@@H](CO)C(=O)NCC(=O)NCC(N)=O)C(C)C | nerve branching | human head and neck surgery, nerves | 500 mg, improved | reference: white light | share of responses | 7.7% |

For quick reference, copied from above:
| SMILES | assay | system | setting | scale | measurement | result |
| --- | --- | --- | --- | --- | --- | --- |
| Oc1ccc(Br)cc1C=NCCN1CCOCC1 | FRAP | – | 80 µM | – | ferric reducing power | 13.4% |
| Nc1ccn([C@H]2C[C@H](O)[C@@H](COP(=O)(O)OP(=O)(O)O)O2)c(=O)n1 | binding, MIDAS equilibrium dialysis LC-MS | A2AR-BRIL thermostabilized | concentration not given | reference: no-protein control | log2 fold change | -0.626 |
| C[C@H](Oc1ccc(Br)cc1-c1ccon1)C(=O)O | first response peak | human, tibialis anterior muscle | 800 mg, 30-15 Hz, SAD | – | difference from placebo | -0.641% |
| O=C(O)CNC(=O)Cc1ccccc1 | – | ventricular cardiomyocytes, C57BL/6 mouse | dose not given, 0.472 s | – | sarcomere length | 1.68 µm |
